Measured values of several laboratories.
Lines come from different studies, so protocols differ. “And” joins repeats or separate records; there may be more than shown.
UCHL1: Ubiquitin carboxyl-terminal hydrolase isozyme L1 (UCHL1, Homo sapiens, UniProt P09936)
UniProt P09936, sequence (whole entry, looked up): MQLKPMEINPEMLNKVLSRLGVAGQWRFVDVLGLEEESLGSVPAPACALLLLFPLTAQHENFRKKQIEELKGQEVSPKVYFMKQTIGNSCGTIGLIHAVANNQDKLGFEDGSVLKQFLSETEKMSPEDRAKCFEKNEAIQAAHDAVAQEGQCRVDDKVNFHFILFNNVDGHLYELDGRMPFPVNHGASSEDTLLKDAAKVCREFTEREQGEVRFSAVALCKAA

| Structure (SMILES) | tested on | test | test system | conditions | scale | endpoint | result |
| --- | --- | --- | --- | --- | --- | --- | --- |
| CCCCN1CCN(c2ccc3[nH]c(-c4ccc5[nH]c(-c6ccc(C(F)(F)F)cc6)nc5c4)nc3c2)CC1 | SNB-75 | SRB |  | 10 µM, 48 h |  | growth percent | -93.6% |
| CSc1nc(-c2ccc(Cl)cc2)c2c(NC(=O)c3ccccc3)nnc-2[nH]1 | SNB-75 | SRB |  | 10 µM, NCI60 single-dose screen | reference: untreated | cell growth | 95.3% |
| S=C([S][Au-][P+](CCCCCC[P+]([Au-][S]C(=S)n1cccn1)(c1ccccc1)c1ccccc1)(c1ccccc1)c1ccccc1)n1cccn1 | SNB-75 | cell growth, NCI-60 screen |  | CNS cancer |  | log10 TGI | > -4 |
| CCCN1CCN(c2ccc3[nH]c(-c4ccc5[nH]c(-c6ccc(C(F)(F)F)cc6)nc5c4)nc3c2)CC1 | SNB-75 | SRB |  | 10 µM, 48 h |  | growth percent | 32.5% |
| COc1ccccc1N=Nc1ccc(NC(=O)CCl)cc1C | UCHL1 | covalent, intact protein LC-MS |  | 12.5 µM |  | labelling | 10.1% |
| O=C(Nc1nnc2[nH]c(=S)[nH]c(-c3ccc(Cl)cc3)c1-2)c1ccccc1 | SNB-75 | SRB |  | 10 µM, NCI60 single-dose screen | reference: untreated | cell growth | 68.5% |
| CCCCN1CCN(c2ccc3[nH]c(-c4ccc5[nH]c(-c6ccc(OCC)cc6)nc5c4)nc3c2)CC1 | SNB-75 | SRB |  | 10 µM, 48 h |  | growth percent | 60% |
| COc1ccc(CCNc2oc(COc3ccc(C)cc3)nc2C#N)cc1 | UCHL1 | covalent, intact protein LC-MS |  | 12.5 µM |  | labelling | 8.49% |
| O=C1NCCc2[nH]c(-c3ccncc3)cc21 | SNB-75 | MTS |  | NCI60 panel |  | IC50 | 6140 nM |
| CC(=O)O[C@H]1C(=O)[C@@]2(C)[C@H]([C@H](OC(=O)c3ccccc3)[C@]3(O)C[C@H](OC(=O)[C@H](O)[C@@H](NC(=O)c4ccccc4)c4ccccc4)C(C)=C1C3(C)C)[C@]1(OC(C)=O)CO[C@@H]1C[C@@H]2O | SNB-75 | sulforhodamine B | CNS cancer | NCI60 screen |  | TGI | 80 nM |
| C#C[C@@]1(O)[C@@H](CO)O[C@@H](n2cc(Cl)c3c(N)ncnc32)[C@@H]1O | SNB-75 | SRB |  | NCI-60 screen |  | TGI | 888 nM and 574 nM |
| Cn1cncc1C1=CN(c2ncnc3[nH]cnc23)CCS1 | SNB-75 |  |  | CNS cancer |  | TGI | 19500 nM |
| CCOC(=O)CSc1nc(-c2ccc(Cl)cc2)c2c(NC(=O)c3ccccc3)nnc-2[nH]1 | SNB-75 | SRB |  | 10 µM, NCI60 single-dose screen | reference: untreated | cell growth | 84.7% |
| CCCCN1CCN(c2ccc3[nH]c(-c4ccc5[nH]c(-c6ccc(OCC)c(OCC)c6)nc5c4)nc3c2)CC1 | SNB-75 | SRB |  | 10 µM, 48 h |  | growth percent | 24.1% |
| C#C[C@@]1(O)[C@@H](CO)O[C@@H](n2cc(F)c3c(N)ncnc32)[C@@H]1O | SNB-75 | SRB |  | NCI-60 screen |  | TGI | 2320 nM |
| O=C(Nc1nnc2n3c(Cc4ccccc4)n[nH]c3nc(-c3ccc(Cl)cc3)c1-2)c1ccccc1 | SNB-75 | SRB |  | 10 µM, NCI60 single-dose screen | reference: untreated | cell growth | 82.9% |
| COc1ccc(OC)c(-c2nc3ccc(-c4nc5ccc(N6CCN(C)CC6)cc5[nH]4)cc3[nH]2)c1 | SNB-75 | SRB |  | 10 µM, 48 h |  | growth percent | 74.1% |

Repeated from above:
| Structure (SMILES) | tested on | test | test system | conditions | scale | endpoint | result |
| --- | --- | --- | --- | --- | --- | --- | --- |
| O=C(Nc1nnc2n3c(Cc4ccccc4)n[nH]c3nc(-c3ccc(Cl)cc3)c1-2)c1ccccc1 | SNB-75 | SRB |  | 10 µM, NCI60 single-dose screen | reference: untreated | cell growth | 82.9% |
| CSc1nc(-c2ccc(Cl)cc2)c2c(NC(=O)c3ccccc3)nnc-2[nH]1 | SNB-75 | SRB |  | 10 µM, NCI60 single-dose screen | reference: untreated | cell growth | 95.3% |
